# Assay results pooled from the literature.
# Each numbered part is a random draw from the data of one study; scales do not carry over between parts. Positions count from the first letter of the parent shown.

# Series 1
# Target: RNA binding protein fox-1 homolog 2, RRM domain, GST-SBP tag (RBFOX2, Homo sapiens, UniProt O43251-10, residues 100-194)
# Technique: RNA Bind-n-Seq
# Molecule type: RNA
# Matrix: in vitro
# Concentration: 365 nM
# Notes: natural RNA segment, single round, ends assumed
# Reference: no-protein control
# Direction: higher = stronger binding
# Shared flanks, not repeated: GGGAGUUCUACAGUCCGACGAUC … UGGAAUUCUCGGGUGCCAA
# Residues (chain): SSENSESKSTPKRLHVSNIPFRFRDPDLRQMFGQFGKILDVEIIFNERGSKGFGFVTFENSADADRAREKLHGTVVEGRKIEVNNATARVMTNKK
Oligonucleotide,RBNS enrichment (R)
AAAUUCCAAAUAGUUUUAUUUUUCACGCACAAUUUUCCCCAGUUCAAAGGACUGUUACUUUAUUAUUGUAUUCAACACUCAUUGUGUGUAUUACCACAAAUACUACCGAC,0.948
AAGAGUUUAGAAGAAACAAAAGGCCUUAGAGUCAUCUCUAUGUAAUUGUAUCCUGGUUUCCCCAUCUCCUUAUCCUGAUUUCUCAUUGCUCUUCUGUCCUGCCUCACUGU,0.367
AAGAGCAGGGCAGGAAGACAGUUCAGGAGAUGGGUGUCAAGUUUUCUCUUGGUUGAUUUCAUUCCCUUGCAUCUUUCCCCUGUGCUGACAGGGGGCAGAAGGCACAACCA,0.341
UAUGUCCCUGUCUGGGGGGCAGGAGGAAUCUGCCAAAGACCAACAGUCUUACUUUAUCUUACUAUACUUCACAAAGGUUCUAAAAUGUGAAGAGUUUACUUGGAUUGCAG,0.387
AGUGUAGGUAAUGUAAAACAGUAAGCUCAAAUUGCAGAAGCCAGUAUCCUACAGAAAUUUAAGUAGCUACUGCUUCUCCUGAAAGCCCAAGUUGAAAAUGGGACCACAGG,0.616
UGUUUCUUUUUCUGUCUUCUAGACUAAAUAGAGUAUCAUCCAAAUAAUGGGGCCUAUGACUUGAAUGAAUAGAAAUGAAUAAGCUGGUGUUUGUUUUUUCAAAAUGGAAG,0.43
GUAGGAUCACACACACAGGUGCAAUCUUGACCACACUUACCUGCAAGAGGAGUAACCAGAGGACACACUUCCUUCCUUCUUUGGUGUCUGAGGAGUGUGAACUGUUGGGG,0.483
GUGCUAUUCACGCAGGUUUAUUCCCUCCAUGGCCUCCGGGCUUUGCAUGUCUAUGAUGUGUGUGUCGCUGGGAAGGUCAUGCUUGCCAGUUAUGGGUGGAUCGCAGCUCU,0.346

# Series 2
# Target: CCNE2, cyclin fold, Cln2 fusion (human)
# Technique: yeast growth competition, sequencing
# Matrix: yeast
# Notes: strong parent motif
# Reference: not given
# Direction: higher = stronger binding
# Starting sequence: CDKN1B docking peptide (human); PSACRNLFGPVDH
Substitution,normalised enrichment score
C4M,0.195
F8E,-0.347
P1W,1.17
P1C,0.956
S2L,0.843
S2H,1.33
C4Y,0.397
F8I,0.474
C4H,0.136
V11T,0.788
C4V,1.59
P1L,0.951
A3G,0.059
V11S,1.64
H13N,0.622
R5G,-0.388
S2E,-0.0902

# Series 3
# Target: Centromere-binding protein 1, full length, His-tagged (CBF1, Saccharomyces cerevisiae, UniProt P17106, residues 1-351)
# Sequence of UniProt P17106 (whole entry, looked up): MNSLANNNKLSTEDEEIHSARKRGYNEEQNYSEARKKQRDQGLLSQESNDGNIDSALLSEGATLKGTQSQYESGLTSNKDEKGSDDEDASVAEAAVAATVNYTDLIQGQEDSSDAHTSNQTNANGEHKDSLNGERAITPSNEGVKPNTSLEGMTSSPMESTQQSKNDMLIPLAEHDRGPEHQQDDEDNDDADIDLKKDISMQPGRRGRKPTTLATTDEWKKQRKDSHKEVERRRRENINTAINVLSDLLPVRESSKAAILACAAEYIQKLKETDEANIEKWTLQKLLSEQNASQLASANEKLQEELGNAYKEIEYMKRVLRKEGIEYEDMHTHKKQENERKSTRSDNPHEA
# Technique: competition protein-binding microarray
# Molecule type: double-stranded DNA, one strand shown
# Matrix: in vitro
# Concentration: 2 µM
# Notes: whole 60-bp probe, lowest competitor level
# Added: Pho4 competitor, 0.05 µM
# Direction: higher = stronger binding
# Shared flanks, not repeated: … GTCTTGATTCGCTTGACGCTGCTG
Oligonucleotide,fluorescence intensity
CTAACGAAGGTTTTTCACGTGTTTTACAAGCCAAGT,945 a.u.
CGTCCTAGCGATTGAAGTGTGGGTGCCATGAGGAAG,74.8 a.u.
TGCGCAACAACTTGAAGTGTGGGTGTATGTCTAGAA,71.7 a.u.
CTTCTGTAAATTTGCTCAGTGGGTGGACGCGCCCCG,83.2 a.u.
AAAGCGGTAATTTGCCAGGTGGGTGCAGATATCTAT,89.9 a.u.
CTTTCCCGATCTTGTCACTGTACTTTAGCACATTTG,79.4 a.u.
TGTAAATTTTTGTATAATTTCATCATGGAGGTGCAT,99.2 a.u.
CTCTCGGGCGTCGCCAACGTGGTCGTTCAAATGCTT,77.6 a.u.
GGTTCGTAGCCAGACGCCGTGACGGTTGGGCCTCTA,50.9 a.u.
CTGAATTCTTTAAAGAGTGTGACAGTGTCTTTTCCG,75.1 a.u.
ATAAGTTTCCCTGGTTACGTGTTGAAGCAGACCGCA,102 a.u.
GGTAATCCCTAAGAACACATGCCCATAGTGGAAGAT,133 a.u.
TAAACAAGTCTCTTACACGTGAAGCACCTACCCCAA,550 a.u.
GAAGTCGGTTCATTGCATGTGCTGTTACACTTCTTA,93.3 a.u.
TTTTACGTTTGAGGCCTCGTGGCCGAAATGGTACGC,118 a.u.
CAATGTTTGTTTCCTCACGTGTGTTGGAAAAGGAAA,1620 a.u.
GCTTGCCGCGAACCTCTCGTGCGATGCCAAAGTGGT,63.4 a.u.
TGCGAGATATACCATCACGTGAGGTGGATTTGATCT,4760 a.u.
TGAATCTAGACCGTCATCGTGCGGACTCCTAGATCC,59.4 a.u.

# Series 4
# Target: Histone acetyltransferase KAT6A, winged helix 2, GST fusion (KAT6A, Homo sapiens, UniProt Q92794, residues 85-181)
# Technique: protein binding microarray
# Molecule type: double-stranded DNA, one strand shown
# Matrix: in vitro
# Concentration: not given
# Notes: 8-mer, flanks averaged, mean of 2 arrays, mostly near background
# Reference: not given
# Direction: higher = stronger binding
# Target sequence (chain): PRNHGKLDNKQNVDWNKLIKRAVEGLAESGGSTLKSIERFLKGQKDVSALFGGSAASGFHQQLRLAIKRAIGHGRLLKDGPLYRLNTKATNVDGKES
Oligonucleotide,E-score
CACCTATA,-0.186
AGTATCAT,0.0206
ATCCTGTA,0.00498
CCTCGAAA,0.0946
ATCCGTCC,0.00219
GAATCTAA,0.0712
AGCGAAGG,0.0309
ACGCGCAT,-0.0101
GGACGTAC,-0.179
CGCGGCCA,0.231
ATGCCCGA,-0.012
GCCCCAGA,0.0749
CTTACAAA,0.0258
TATCCAAA,0.113
ACGACGTC,-0.0379
CACGGAAG,-0.021
AGATCTGC,0.137
CTCTAAAA,0.0888
GATCTCCA,-0.00682
AGAATCGG,0.0279
AGCCCCAG,0.0197
CGAACGGC,0.165
AGCATGCG,0.166
ATTCTCGC,-0.109

# Excerpt of the above (series 4):
Oligonucleotide,E-score
CGAACGGC,0.165
CACGGAAG,-0.021
CACCTATA,-0.186
AGCCCCAG,0.0197
ACGCGCAT,-0.0101
ATCCTGTA,0.00498
TATCCAAA,0.113
ATCCGTCC,0.00219
AGTATCAT,0.0206
